Experimental data pooled from the literature.
Each numbered part is a random draw from the data of one study; scales do not carry over between parts.

Series 1 — technique: protein binding microarray; form: double-stranded DNA, one strand shown; sample: in vitro; tested at: not given; baseline: not given; direction: higher = stronger binding; quantity: E-score
Target: Histone acetyltransferase KAT6A, both winged helices, GST fusion (KAT6A, Homo sapiens, UniProt Q92794, residues 1-181)
Notes: 8-mer, flanks averaged, mean of 2 arrays, mostly near background
Residues (chain): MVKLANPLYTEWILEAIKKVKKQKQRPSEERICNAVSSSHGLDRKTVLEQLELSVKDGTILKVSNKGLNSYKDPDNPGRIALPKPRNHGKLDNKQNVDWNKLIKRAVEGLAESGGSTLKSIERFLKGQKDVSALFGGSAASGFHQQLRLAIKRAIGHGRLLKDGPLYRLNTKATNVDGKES
CTCCTATA: -0.197
ATTAACTG: -0.121
GGGAAGCA: -0.0129
CGCGGGCA: 0.313
GTGATTCA: -0.14
AAGCGAAT: 0.0735
CAAGAAGC: 0.109
GCCTTGAA: -0.167
TGCTAGCA: 0.0337
ACTCGCTC: 0.0398
CGCTTTGC: 0.18
GCAAAGGC: -0.0811
CAAGTGAA: -0.146
AATAAATC: -0.0698
ATACGTTG: -0.0174
GAACATCC: 0.139
CGTAAAAA: 0.0805
AGTCATTG: -0.295
GAACACCC: -0.0933
AGCTTAAG: -0.194
AGCATATC: -0.0828
AGAACTTC: -0.0247

Series 2 — technique: RNA Bind-n-Seq; form: RNA; sample: in vitro; tested at: 365 nM; baseline: no-protein control; direction: higher = stronger binding; quantity: RBNS enrichment (R)
Target: RNA binding protein fox-1 homolog 2, RRM domain, GST-SBP tag (RBFOX2, Homo sapiens, UniProt O43251-10, residues 100-194)
Notes: natural RNA segment, single round, ends assumed
Shared flanks, not repeated: GGGAGUUCUACAGUCCGACGAUC … UGGAAUUCUCGGGUGCCAA
Construct (chain): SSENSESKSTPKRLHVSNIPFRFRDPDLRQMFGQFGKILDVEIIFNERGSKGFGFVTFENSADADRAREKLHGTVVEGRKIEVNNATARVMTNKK
GCGCCAUCACAACUUAUUUGUGUGACUAAUUGCCUAGAUUGUAAGCUCUUUGAGGGCAGGGCUUGUCUCUUACACAUCUUUAUAAUCCCCUGCAGCGGCUUUCAGUAUUU: 0.478
CAGGGACCCGAGAUGGGGGGCGCAUUGUGGCAUUCCUCUUCUCCACAUCUGCUCGUUCUUGCCGAGGGUGCAGUGGUGGCGUGGAAGCCCUGUCACCCCACCCCAGGCCA: 0.519
UUCCUCCAAGCCACAUGAGGACUCUGGCACCCACCCACAAAGCAAGACCUGUAUUUAUAAGCCGAGGGCUCAGGGAGCCUAACUGCGGGACCCGUCAGGGCCCCGUGACC: 0.351
CCACAGUCAGAACAUGCAAACUUUUUUGAAGAAAUUACUUGAAUAAGUAGUUUUCAUGUUUUCAAUAUGCAGUUUUGAAAAUGAGGAUUCACCUAGACUUUUUUAGAUUU: 0.641
GUGGAAAAAUAAAGUACAUUUUGAAGUAUCUUGAGGGUUGGGUCAAUUGAGACAUUUCUAGCAUUACUUAAUGACUUGCAUUGUGGUUUUUCUGCAAGCAACUUUAAUGA: 1.77
CCCCAGUAGGCCUGUCCUGGCCAGAGAAGACUGGUAGGGGCCGAGUGGGGUUUGAAGGCAGCCGGCCCGGCCCAGCCCAGGAGCGCUAUUUAUUGCAUAUUUAUUGUUUG: 1.2
AACAAGAUCACCCAGCAUCCUUCCCCACCCCAGCUGUGUAUUUAUAUAGAUGGAAAUAUACUUUAUAUUUUGUAUCAUCGUGCCUAUAGCCGCUGCCACCGUGUAUAAAU: 0.549
UUUGGGAGUUUAUGCAAGGUGGCUGGGCUUUUAAGAACAACAUGGACAUCAGAAAUCACCAGAACCUUCAGGAUCGCCUGCAGGCAGCCCAUCUACUGCUGGCCAGGAGC: 0.714
ACCUGUGAGAUUCUUACACAGGGGUUGGCUUCUCUAUGUUAGCCAGGGGUGCUGUAAGAACUCAGGUUAGUAGCAUACUUGAGUAAUCAGGGUCAAAGUGUCUCACCACA: 0.356
UAAAUGACUAUUUAUUCUUCUGCCCCCCUCUAGAGCACUCUUCUUGGCCAGACCCUCUGUCCAAGGCUCAUUAGAAGGCUGGGGUUGUGUUCAGGUGACAGACUUUAUCA: 0.315
AGUUGGCCAUCCCAAAUUUCAUCGGUCCAUAGACACAAGCACAGAGCAAGAAACAAGGGCCUUAGAUGUGCCACGAAGGGCCCUUUGGUGGGCUGUGUGACAGUCGCGUG: 0.439
CACUGCCUUUCCCCCUCCACCGAGGGCUAUUGGCUGACAAAGCCCCUUCCUGGCCUCACAACCACCACAGUGAUUUCCUGUAGUGUCUUACACUUCCAUGUCACCACAGC: 0.251

Series 3 — technique: RNA Bind-n-Seq; form: RNA; sample: in vitro; tested at: 200 nM; notes: whole 134-nt RNA, ends assumed; added: 150 mM KCl; baseline: input library; direction: higher = stronger binding; quantity: log2 enrichment
Target: Ras GTPase-activating protein-binding protein 1, full length (G3BP1, Homo sapiens, UniProt Q13283)
Sequence of UniProt Q13283 (whole entry, looked up): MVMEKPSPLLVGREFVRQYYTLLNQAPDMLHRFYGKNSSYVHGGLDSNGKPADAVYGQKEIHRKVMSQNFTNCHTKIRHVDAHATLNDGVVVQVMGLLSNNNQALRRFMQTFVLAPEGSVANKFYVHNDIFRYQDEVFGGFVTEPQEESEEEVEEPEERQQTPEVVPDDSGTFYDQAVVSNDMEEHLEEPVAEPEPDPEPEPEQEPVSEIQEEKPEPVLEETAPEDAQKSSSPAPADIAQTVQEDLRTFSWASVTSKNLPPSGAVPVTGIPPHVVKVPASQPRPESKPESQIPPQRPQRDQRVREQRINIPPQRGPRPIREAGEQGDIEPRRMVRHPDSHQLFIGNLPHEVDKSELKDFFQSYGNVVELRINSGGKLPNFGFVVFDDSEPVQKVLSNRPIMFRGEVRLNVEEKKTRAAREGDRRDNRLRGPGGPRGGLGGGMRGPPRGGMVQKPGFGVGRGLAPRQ
Shared flanks, not repeated: GGGAGUUCUACAGUCCGACGAUC … UGGAAUUCUCGGGUGUCAAGG
UAACUUUAGAGGAGGAUCUGAUGGAUAUGGCAGUGGAUGUGGAUUUGGGGAUGGCUAUAAUGGGUAUGGAGGAGGACCUGGAGGUGGCAA: 0.34
UGUGCUACACAUCGUAUGUACCGAAUCGGGCCCCCCCGGGCCCCCCCGGGGCCCCCCCGGGGAAAGUAUUAUGUUACGCCGUUCGGAUCU: -1.8
CACAGACAACACGCACCCACACAGACACAGAGGGAAGGGGUUGGGAUGGGGACAGGGUGAAAAGCAGGGCGGGGUAGGACCCCAGCCCCU: 1.58
UGUGGGUCCUCCUGCACCUGGUGCUGGCCUUCCUGUCCCUGCGCUCUUUGACAGCCUCCUGACCUGUAGGACGAGGGAUUCCUUGUUCUU: -0.596
CACAGACAACACGCACCCACACAGACACAGAGGGAAGGGGUUGGGAUGGGGACAUGGUGCACAGCAGGGCGGGGUAGGACCCCAGCCCCU: 1.65
AUUCUUCAUUGAGGGUGAGGAUCUCCCAAUGGGAGACUGCUCUGAAAAGAGCAUGUGCUUUUUGAAUUAGAUAACCUACUAUAAUCAUGG: -0.861
AAGUCCUGUGCUACACAUCGUAUGUACCGAAUCGGUUUUUUUGGUUUUUGGUUUGGAAAGUAUUAUGUUACGCCGUUCGGAUCUGCACUU: -1.33
GUCCUGUGCUACACAUCGUAUGUACCGAAUCAAACCCAAAUUUUUUUAAAUUUUUAAAAAAGUAUUAUGUUACGCCGUUCGGAUCUGCAC: -0.511
UCAAGUCCUGUGCUACACAUCGUAUGUACCGAAUCGGUUUUUUUGGAGGAAAGGAAAGUAUUAUGUUACGCCGUUCGGAUCUGCACUUCC: -0.681
ACCAUGCAGGUGGGCUUCUUUGGGAAGUGGGGCAAGGGGGGGAUAGGGAGGGGGGUAACACUUUGGGAACAGGUGGUCCCAGGUCGUUUC: 1.33
UCCUGUGCUACACAUCGUAUGUACCGAAUCGGGGUUUGGGGUUUUUGGGGUUUUUGGGGAAAGUAUUAUGUUACGCCGUUCGGAUCUGCA: 0.733
ACCAUGCAGGUCGGCAUCUUUGGGAAGUGGGGCAAGGGGGGGAUAGGGAGGGGGGUAACACUUUGGGAACAGGUGGUCCCAGGUCGUUUC: 1.6
GUCCUGUGCUACACAUCGUAUGUACCGAAUCGGGGAAAAGGGGAAAAGGGGAAAAGGGAAAGUAUUAUGUUACGCCGUUCGGAUCUGCAC: 0.27
AGUCCUGUGCUACACAUCGUAUGUACCGAAUCGGAAAAAAAGGAAAAAGGUUUUUGGAAAGUAUUAUGUUACGCCGUUCGGAUCUGCACU: -1.69

Series 4 — technique: aptamer microarray, sandwich; form: DNA with 2'F-ANA; sample: in vitro; tested at: 200 nM; added: Cy3 exosite-II aptamer, 400 nM; direction: higher = stronger binding; quantity: mean fluorescence intensity; sequence: GGTTGGTGTGGTTGG
Target: Prothrombin, mature alpha-thrombin (F2, Homo sapiens, UniProt P00734)
Notes: whole 15-mer aptamer, many near background
2'F-ANA at 2 5 8 9 11 13: 82.7 a.u.
2'F-ANA at 1 5 6 7 9 11 13 14: 50.5 a.u.
2'F-ANA at 1 4 8 9 10 11 13 14 15: 88.7 a.u.
2'F-ANA at 2 3 9 10 11 12 13: 384 a.u.
2'F-ANA at 1 2 4 5 9 11 15: 49.1 a.u.
2'F-ANA at 2 3 5 6 9 14: 49.8 a.u.
2'F-ANA at 3 4 5 7 8 11 12 15: 178 a.u.
2'F-ANA at 4 5 6 8 10 14 15: 45.3 a.u.
2'F-ANA at 2 4 5 6 9 12 13 15: 81.2 a.u.
2'F-ANA at 3 5 8 10 11 12 14 15: 51.4 a.u.
2'F-ANA at 7 10 11 12 14: 121 a.u.
2'F-ANA at 1 4 13 14 15: 46.4 a.u.
2'F-ANA at 1 2 3 4 5 7 8 12 13: 90.3 a.u.
2'F-ANA at 2 8 10 12 13: 149 a.u.
2'F-ANA at 1 5 8 9 11 13 14: 54.3 a.u.
2'F-ANA at 2 3 4 5 8 9 10 13 14: 58.6 a.u.
2'F-ANA at 2 4 5 6 7 10 11 12: 52 a.u.
2'F-ANA at 5 7 8 9 11 12 13: 94.4 a.u.
2'F-ANA at 5 6 7 11 13 14 15: 46.3 a.u.
2'F-ANA at 1 4 5 8 9 12 13 15: 64.9 a.u.
2'F-ANA at 1 2 3 4 6 7 8 9 10 11 12 14 15: 53.5 a.u.
2'F-ANA at 2 3 4 7 11: 657 a.u.
2'F-ANA at 1 3 4 5 10 11: 46.8 a.u.
2'F-ANA at 1 4 5 10 11 12 13 14 15: 53.1 a.u.
2'F-ANA at 1 5 6 8 9 10 11 12: 51 a.u.

Some of these lines once more (series 1):
AGAACTTC: -0.0247
ACTCGCTC: 0.0398
AGCATATC: -0.0828
AGTCATTG: -0.295
GGGAAGCA: -0.0129
GCCTTGAA: -0.167
GTGATTCA: -0.14
ATACGTTG: -0.0174
AGCTTAAG: -0.194
